Experimental data from different studies.
Protocols differ between the studies behind these lines.
PPARG: Peroxisome proliferator-activated receptor gamma (PPARG, Homo sapiens, UniProt P37231)
Chain of UniProt P37231 (whole entry, looked up): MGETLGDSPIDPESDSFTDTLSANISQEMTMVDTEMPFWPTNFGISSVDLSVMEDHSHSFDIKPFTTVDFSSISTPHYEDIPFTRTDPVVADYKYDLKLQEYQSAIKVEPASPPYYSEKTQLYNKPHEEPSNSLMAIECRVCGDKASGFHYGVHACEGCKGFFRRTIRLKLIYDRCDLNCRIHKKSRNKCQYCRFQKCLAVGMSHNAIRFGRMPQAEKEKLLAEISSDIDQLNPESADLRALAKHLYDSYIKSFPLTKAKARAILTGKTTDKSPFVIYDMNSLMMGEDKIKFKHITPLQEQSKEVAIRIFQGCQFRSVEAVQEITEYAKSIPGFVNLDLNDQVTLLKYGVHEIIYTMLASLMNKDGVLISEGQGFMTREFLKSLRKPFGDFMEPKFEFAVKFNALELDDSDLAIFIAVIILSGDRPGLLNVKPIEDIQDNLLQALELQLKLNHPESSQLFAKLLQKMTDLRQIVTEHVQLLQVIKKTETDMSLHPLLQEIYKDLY

`CCN(C(=O)c1cc(F)ccc1Oc1nncnc1N1CCC2(C1)CN([C@H](CCCN(C)CCOC)C(C)C)C2)C(C)C` gave a GI50 of over 10000 nM (A204; muscle; 168 h).
`CN1CCCNC(=O)c2cccc(c2)C(=O)NCCCN(C)CCCNc2cccc3c2C(=O)c2cccc(c2C3=O)NCCC1` — result for “log2 fold change”: 1.34 (SAS; RNA-Seq, measured: OARD1 mRNA; 1 µM, 6 h; relative to: untreated cells).
`Oc1c(/N=N/c2ccccn2)ccc2ccccc12` has an efficacy of 124% (LDR; silenced CMV-GFP reporter derepression, qHTS).
`CSC(=S)N/N=C(\C)c1ccc(Nc2nnc(-c3ccc(Cl)cc3)c3ccccc23)cc1` has a cell death of 92.2% (HepG2; cell growth or viability, MTT; 10 µM).
`CO[C@@H]1[C@@H](OC(N)=O)[C@@H](O)[C@H](Oc2ccc3c(O)c(NC(=O)c4ccc(O)c(CC=C(C)C)c4)c(=O)oc3c2C)OC1(C)C` gave a colony count of 9.5 (HCT-116 parental; 200 µM, replicate 2).
For `CCN(CC)CC(=O)Nc1cccc(-n2cc(-c3ccc4ccc(-c5cn(-c6cccc(NC(=O)CN(CC)CC)c6)nn5)cc4c3)nn2)c1`, the fold regulation was 1.06 (RCC4; PCR angiogenesis array, measured: CXCL5; 5 x IC50, 2 h, normoxia; relative to: untreated).
`Cc1c(Cc2ccc(Cl)c(O[C@H](C)C(=O)O)c2)c2ccc(C(=O)N[C@@H](C)c3ccc(C(C)(C)C)cc3)cc2n1C` gave an IC50 of 2.18 nM (PPARG; ligand displacement, TR-FRET).
Under “log2 fold change”, `COC1CN([C@H]2CC[C@H]([C@@]3(C)Oc4c(Cl)cc(C(=O)NCc5c(SC)cc(C)[nH]c5=O)c(C)c4O3)CC2)C1` is recorded as 1.17 (RNA-seq, measured: CNRIP1; human, whole blood; dose not given, 24 h; relative to: pretreatment baseline).
`Cc1cc(NC2CCN(C)CC2)ccc1-c1cc2c(N3CCC[C@H](C(=O)NCc4ccc(OC(F)(F)F)cc4)C3)ncnc2[nH]1` has an inhibition of 75% (NCI-H2228; cell growth or viability, MTT; 0.2 µg/mL, 72 h).
For `Nc1ncc(-c2cc(-c3cnn(CC(F)(F)F)c3)ncc2F)nc1C(=O)NC1CNCC(F)C1` (stereo not drawn), the remaining binding was 78% (AURKC; KINOMEscan; 1 µM; relative to: DMSO control).
For `Cc1sc2c(c1C)C(c1ccc(Cl)cc1)=N[C@@H](CC(=O)NCC(=O)N1CCC3(CCC(C(=O)N4CCN(C(=O)c5cc(Cc6n[nH]c(=O)c7ccccc67)ccc5F)CC4)CC3)CC1)c1nnc(C)n1-2`, “cells in G2 phase” read 21% (NCI-H82; 10 nM, 24 h).
`CC(C)Cn1cc(Cc2cccc(OC(C)(C)C(=O)O)c2)c2ccc(C(=O)N[C@@H](C)c3cccc(C(C)(C)C)c3)c(F)c21` has an IC50 of 85 nM (PPARG; ligand displacement, TR-FRET).
`COC(=O)c1cc(NC2=NC(=O)C(=Cc3ccc(C)cc3)S2)ccc1OC(C)=O` gave a metabolite level of -0.12 fold change (MCF7; GC-MS, measured: 2-Propenoic acid; 1 µM; relative to: DMSO).
With `Cc1n[nH]c(C)c1-c1cc2c(N3CCC[C@H](C(=O)NCc4ccc(OC(F)(F)F)cc4)C3)ncnc2[nH]1` the inhibition was 76.1% (NCI-H2228; cell growth or viability, MTT; 1 µg/mL, 72 h).
With `CCc1nnc(NC(=O)c2cccc(C(=O)Nc3nnc(CC)s3)n2)s1` the efficacy was 136% (LDR; silenced CMV-GFP reporter derepression, qHTS).
`Cc1nn(C)cc1-c1cc2c(N3CCC[C@H](C(=O)NCc4ccc(OC(F)(F)F)cc4)C3)ncnc2[nH]1` has an inhibition of 74.8% (NCI-H2228; cell growth or viability, MTT; 1 µg/mL, 72 h).
With `O=C(C[Se]C(=O)c1ccc2ccccc2c1)Nc1cccc(C(F)(F)F)c1` the GI50 was 1890 nM (NCI60 renal subpanel; cell growth, inhibitor; five-dose).
For `CNS(=O)(=O)Nc1nccc(Cc2c(C)c3ccc(Oc4ncccc4F)cc3oc2=O)c1F`, the IC50 was over 1000 nM (OCI-Ly7; cell viability; 7 days).
`C=CC(=O)Nc1cccc(Cn2ncc3cnc(Nc4cnn(CCOC)c4)nc32)c1` — result for “percent of control”: 100% (ACVRL1 human; binding, KINOMEscan; 100 nM; lower = stronger binding).
For `CC(C)c1ccc(N(C)c2ccc3c(c2)OCC[C@H]3CNc2cnccc2C(=O)O)cc1`, the IC50 was 194 nM (BICR18; cell viability, CellTiter-Glo; 7 days).
`Cc1cc(NC2CCN(C)CC2)ccc1-c1cc2c(N3CCC[C@H](C(=O)NCc4ccc(Cl)nc4)C3)ncnc2[nH]1` has an inhibition of 11.6% (NCI-H2228; cell growth or viability, MTT; 0.04 µg/mL, 72 h).
For `Cc1ncsc1-c1ccc(C(C)NC(=O)C2CC(O)CN2C(=O)C(NC(=O)CCCCCCCCCCN2CCCC(Nc3ncc(Cl)c(Nc4ccccc4S(=O)(=O)C(C)C)n3)C2)C(C)(C)C)cc1` (stereo not drawn), “log2 fold change” read -1.73 (22Rv1; RNA-seq, measured: SLC45A4 mRNA; concentration not given; relative to: DMSO).
`O=C(C[Se]C(=O)C12CC3CC(CC(C3)C1)C2)Nc1cccc(C(F)(F)F)c1` has a GI50 of 3910 nM (NCI60 NSCLC subpanel; NCI60 five-dose screen).
The IC50 of `COc1ccc(C(C)N(C)c2nc(N)nc3nc[nH]c23)cc1` (stereo not drawn) is reported as over 6000 nM (Plasmodium falciparum; parasite growth, parasite lactate dehydrogenase; NF54).

For quick reference, copied from above:
`CO[C@@H]1[C@@H](OC(N)=O)[C@@H](O)[C@H](Oc2ccc3c(O)c(NC(=O)c4ccc(O)c(CC=C(C)C)c4)c(=O)oc3c2C)OC1(C)C` gave a colony count of 9.5 (HCT-116 parental; 200 µM, replicate 2).
For `CCN(CC)CC(=O)Nc1cccc(-n2cc(-c3ccc4ccc(-c5cn(-c6cccc(NC(=O)CN(CC)CC)c6)nn5)cc4c3)nn2)c1`, the fold regulation was 1.06 (RCC4; PCR angiogenesis array, measured: CXCL5; 5 x IC50, 2 h, normoxia; relative to: untreated).
`Cc1c(Cc2ccc(Cl)c(O[C@H](C)C(=O)O)c2)c2ccc(C(=O)N[C@@H](C)c3ccc(C(C)(C)C)cc3)cc2n1C` gave an IC50 of 2.18 nM (PPARG; ligand displacement, TR-FRET).
Under “log2 fold change”, `COC1CN([C@H]2CC[C@H]([C@@]3(C)Oc4c(Cl)cc(C(=O)NCc5c(SC)cc(C)[nH]c5=O)c(C)c4O3)CC2)C1` is recorded as 1.17 (RNA-seq, measured: CNRIP1; human, whole blood; dose not given, 24 h; relative to: pretreatment baseline).
